Measured values pooled from the literature.
Lines come from different studies, so protocols differ.
Sample: plasma
Route: oral

`CCn1c(C(=O)c2cc(C)cc(C#N)c2)c(C(C)C)c(=O)[nH]c1=O` gave an AUC of 6810 ng·h/mL (human; 300 mg, multiple doses, once daily, steady state, healthy volunteers).
`O=C(O)COC[C@H]1CC[C@H](COC(=O)N(c2ccccc2)c2ccc(Cl)cc2)CC1` has an AUC of 17.7 ng·h/mL (human; 30 µg, multiple doses, twice daily, steady state).
For `CCN1C(=O)CNc2ncc(-c3ccc(-c4nc[nH]n4)nc3C)nc21`, the AUC was 551 ng·h/mL (human; 16 mg, patients).
`C[C@@H](N)c1cc(Cl)ccc1Cn1c(=S)[nH]c(=O)c2[nH]ccc21` gave an AUC of 0.235 µM·h (human; 2.5 mg, multiple doses, once daily, healthy volunteers).
With `CCOc1ccc(Cc2cc([C@]34OC[C@](CO)(O3)[C@@H](O)[C@H](O)[C@H]4O)ccc2Cl)cc1` the AUC was 1240 ng·h/mL (human; 15 mg, single dose, healthy volunteers).
With `Oc1ccc2c3c(cnc2c1)-c1ccc(C(F)(F)F)cc1O[C@@H]3c1ccc(OCCN2CC(CF)C2)cc1` the AUC was 3270 ng·h/mL (female human; 400 mg, single dose, fasted, healthy volunteers).
With `O=C(O)C[C@H](O)C[C@H](O)/C=C/c1c(C2CC2)nc2ccccc2c1-c1ccc(F)cc1` the AUC was 248 ng·h/mL (male human; 2 mg, multiple doses, once daily, steady state).
With `Nc1ccc(-c2nc([C@H]3CCc4cc(-c5cc(Cl)ccc5-n5cnnn5)cc(=O)n43)c(F)[nH]2)c(F)n1` the AUC was 2110 ng·h/mL (human; 20 mg, single dose, fasted).
`CN1C(=O)[C@@H](NC(=O)c2nnc(Cc3ccccc3)[nH]2)COc2ccccc21` has an AUC of 7220 ng·h/mL (male human; 120 mg twice daily, multiple doses).

Repeated from above:
With `O=C(O)C[C@H](O)C[C@H](O)/C=C/c1c(C2CC2)nc2ccccc2c1-c1ccc(F)cc1` the AUC was 248 ng·h/mL (male human; 2 mg, multiple doses, once daily, steady state).
